# Results pooled from the literature.
# Each numbered part is a random draw from the data of one study; scales do not carry over between parts. Changes are numbered by the printed parent chain.

# Study 1 — method: RNAcompete; molecule type: RNA; sample: in vitro; concentration: 20 nM; notes: 7-mer, probes averaged, single round; baseline: mean of 7-mers; direction: higher = stronger binding
# Target: PABPC1L2, full length, GST fusion (mouse, UniProt A0ABA7IW68)
# Residues (chain): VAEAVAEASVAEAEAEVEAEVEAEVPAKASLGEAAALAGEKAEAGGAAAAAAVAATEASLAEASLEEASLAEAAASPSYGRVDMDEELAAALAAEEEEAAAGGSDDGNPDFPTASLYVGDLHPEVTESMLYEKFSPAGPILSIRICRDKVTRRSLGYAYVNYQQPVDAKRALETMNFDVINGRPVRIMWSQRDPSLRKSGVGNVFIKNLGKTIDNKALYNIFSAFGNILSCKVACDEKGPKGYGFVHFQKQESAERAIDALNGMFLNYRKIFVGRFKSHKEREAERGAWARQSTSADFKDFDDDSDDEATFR
Strand,7-mer Z-score
CUUCUCA,-0.434
ACGAGAC,0.162
CACCAGC,-0.28
ACGGUAA,0.108
CCACUCU,-0.327
AGGGAUA,0.36
GUCUUAG,-0.421
CCGGUGU,-0.226

# Study 2 — method: aptamer microarray, sandwich; molecule type: DNA with 2'F-ANA; sample: in vitro; concentration: 200 nM; together with: Cy3 exosite-II aptamer, 400 nM; direction: higher = stronger binding; strand: GGTTGGTGTGGTTGG
# Target: Prothrombin, mature alpha-thrombin (F2, Homo sapiens, UniProt P00734)
# Notes: whole 15-mer aptamer, many near background
Modification,mean fluorescence intensity
2'F-ANA at 2 11 12 13,588 a.u.
2'F-ANA at 2 3 4 6 7 9 11 15,350 a.u.
2'F-ANA at 2 3 5 6 7 8 9 10 11 12 13 14,52.6 a.u.
2'F-ANA at 3 6 8 9 10 11 12 13,485 a.u.
2'F-ANA at 3 7 10 13 14 15,432 a.u.
2'F-ANA at 1 2 3 4 5 6 7 9 10 13 14 15,56.8 a.u.
2'F-ANA at 1 5 7 8 9 11,53.2 a.u.
2'F-ANA at 1 2 4 6 7 10 11 14,51.2 a.u.

# Study 3 — target: CRIPT, C-terminal peptide; method: DHFR complementation, deep sequencing; sample: yeast; baseline: wild type; direction: higher = weaker binding
# Notes: single substitutions, model-inferred values
# Starting sequence: ERBIN, PDZ domain 1 (human); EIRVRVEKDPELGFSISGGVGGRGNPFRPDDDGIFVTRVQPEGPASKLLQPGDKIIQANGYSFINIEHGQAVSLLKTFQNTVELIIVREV; partner TKNYKQTSV
Substitution,binding free energy change
A45N,0.323 kcal/mol
P29D,-0.0504 kcal/mol
V6M,0.317 kcal/mol
G69Y,0.0606 kcal/mol
E67L,0.328 kcal/mol
K8E,0.934 kcal/mol
V82W,0.832 kcal/mol
G13M,0.497 kcal/mol

# Other studies, line by line
# Starting sequence: PafA, mature enzyme, eGFP fusion (Elizabethkingia meningoseptica, UniProt Q9KJX5); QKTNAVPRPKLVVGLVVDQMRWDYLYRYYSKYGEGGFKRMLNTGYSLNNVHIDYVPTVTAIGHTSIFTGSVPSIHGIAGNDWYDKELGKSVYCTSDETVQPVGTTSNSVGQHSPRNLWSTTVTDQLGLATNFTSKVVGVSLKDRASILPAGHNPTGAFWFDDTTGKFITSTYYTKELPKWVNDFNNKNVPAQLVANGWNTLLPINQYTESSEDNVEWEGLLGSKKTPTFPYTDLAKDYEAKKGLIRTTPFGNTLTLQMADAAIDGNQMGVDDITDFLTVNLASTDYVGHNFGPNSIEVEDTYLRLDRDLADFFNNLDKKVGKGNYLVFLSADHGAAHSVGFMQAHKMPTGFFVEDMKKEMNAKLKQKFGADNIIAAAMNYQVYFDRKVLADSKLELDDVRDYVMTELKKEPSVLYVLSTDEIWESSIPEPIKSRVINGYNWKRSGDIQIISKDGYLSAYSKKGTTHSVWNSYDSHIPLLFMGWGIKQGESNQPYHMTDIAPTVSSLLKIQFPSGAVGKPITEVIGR
Substitution,target,assay,system,setting,scale,quantity,value
S471G,"inorganic phosphate, free oxyanion",microfluidic competitive inhibition,"in vitro, cell-free expressed","not given, derived from inhibition constants, unchanged parent 615000 nM",lower = stronger binding,phosphate dissociation constant,533 µM

# A few entries again (study 3):
Substitution,binding free energy change
K8E,0.934 kcal/mol
A45N,0.323 kcal/mol
G13M,0.497 kcal/mol
